Results of several laboratories.
Compare with care: the assays were run in different laboratories. ± gives the spread as reported.

Compound | organism | test | test system | conditions | EC50
O=C(/C=C/c1coc2ccccc2c1=O)N1CCN(C(=S)SCc2ccccc2)CC1 | tomato spotted wilt virus | virus inactivation, half-leaf method | Nicotiana glutinosa | tested 31.25 to 500 µg/mL | 434 ± 9.3 µg/mL
COc1ccc(S(=O)(=O)NCc2c[nH]nc2-c2cccs2)cc1 | Cryptosporidium parvum | parasite replication | HCT-8, AUCP-1 | 24 h, continuous treatment | 230 nM
CCCCSC(=S)N1CCN(C(=O)/C=C/c2coc3ccccc3c2=O)CC1 | tomato spotted wilt virus | virus inactivation, half-leaf method | Nicotiana glutinosa | tested 31.25 to 500 µg/mL | 430 ± 7.9 µg/mL
Cc1cc(C(=O)Nc2nc3cccc(C)c3n2[C@H]2CCCCN(C(=O)/C=C/CN(C)C)C2)ccn1 | Trypanosoma brucei brucei | cell growth, CellTiter-Glo | Lister 427 bloodstream form | 48 h | 72 nM
CNCCNC(=O)CN1C(=O)Cc2c([nH]c3ccc(Br)cc23)-c2ccc(Cl)cc21 | Leishmania braziliensis | parasite growth | J774 | 24 h, intracellular, amastigote | ~4000 nM
COc1cc([C@@H]2c3cc4c(cc3[C@@H](C=C(C)C)[C@H]3COC(=O)[C@@H]23)OCO4)cc(OC)c1OC | Dengue virus 2 | viral replication, plaque reduction | BHK-21 | 144 h, post-infection treatment | 72400 nM
CC(=O)N1CCN(C(=O)c2ccc(Nc3nccc(-c4ccc(Cl)cc4)n3)cc2)CC1 | Cryptosporidium parvum | parasite growth, immunofluorescence microscopy | HCT-8, Iowa | 48 h post infection, compound added at 3 h | 4100 nM
CCN(CC)CCSC(=S)N1CCN(C(=O)/C=C/c2coc3ccccc3c2=O)CC1 | tomato spotted wilt virus | virus inactivation, half-leaf method | Nicotiana glutinosa | tested 31.25 to 500 µg/mL | 235 ± 8.1 µg/mL
CC(C)(O)Cn1nc(-c2ccc3nc(OC(F)F)ccc3c2)c2c(N)ncnc21 | Cryptosporidium parvum | parasite growth | HCT-8 |  | 286 nM
O=C1NC(=O)/C(=C/c2ccc3ncnc(N4CCC(F)CC4)c3n2)S1 | Cryptosporidium parvum | parasite growth, immunofluorescence microscopy | HCT-8, Iowa | 48 h post infection, compound added at 3 h | 140 nM
COc1cc(/C=C(\C#N)C(=O)c2ccc(O)c(O)c2)cc(I)c1O | Strongylocentrotus purpuratus | calcium release, agonist | egg homogenate | without cADPR | 9100 ± 1500 nM

Excerpt of the above:
Compound | organism | test | test system | conditions | EC50
COc1cc(/C=C(\C#N)C(=O)c2ccc(O)c(O)c2)cc(I)c1O | Strongylocentrotus purpuratus | calcium release, agonist | egg homogenate | without cADPR | 9100 ± 1500 nM
